Published values collected from several papers.
Each numbered part is a random draw from the data of one study; scales do not carry over between parts. Several values in a cell are separate wells, animals, samples, runs or records.
Chain of UniProt Q5VT25 (whole entry, looked up): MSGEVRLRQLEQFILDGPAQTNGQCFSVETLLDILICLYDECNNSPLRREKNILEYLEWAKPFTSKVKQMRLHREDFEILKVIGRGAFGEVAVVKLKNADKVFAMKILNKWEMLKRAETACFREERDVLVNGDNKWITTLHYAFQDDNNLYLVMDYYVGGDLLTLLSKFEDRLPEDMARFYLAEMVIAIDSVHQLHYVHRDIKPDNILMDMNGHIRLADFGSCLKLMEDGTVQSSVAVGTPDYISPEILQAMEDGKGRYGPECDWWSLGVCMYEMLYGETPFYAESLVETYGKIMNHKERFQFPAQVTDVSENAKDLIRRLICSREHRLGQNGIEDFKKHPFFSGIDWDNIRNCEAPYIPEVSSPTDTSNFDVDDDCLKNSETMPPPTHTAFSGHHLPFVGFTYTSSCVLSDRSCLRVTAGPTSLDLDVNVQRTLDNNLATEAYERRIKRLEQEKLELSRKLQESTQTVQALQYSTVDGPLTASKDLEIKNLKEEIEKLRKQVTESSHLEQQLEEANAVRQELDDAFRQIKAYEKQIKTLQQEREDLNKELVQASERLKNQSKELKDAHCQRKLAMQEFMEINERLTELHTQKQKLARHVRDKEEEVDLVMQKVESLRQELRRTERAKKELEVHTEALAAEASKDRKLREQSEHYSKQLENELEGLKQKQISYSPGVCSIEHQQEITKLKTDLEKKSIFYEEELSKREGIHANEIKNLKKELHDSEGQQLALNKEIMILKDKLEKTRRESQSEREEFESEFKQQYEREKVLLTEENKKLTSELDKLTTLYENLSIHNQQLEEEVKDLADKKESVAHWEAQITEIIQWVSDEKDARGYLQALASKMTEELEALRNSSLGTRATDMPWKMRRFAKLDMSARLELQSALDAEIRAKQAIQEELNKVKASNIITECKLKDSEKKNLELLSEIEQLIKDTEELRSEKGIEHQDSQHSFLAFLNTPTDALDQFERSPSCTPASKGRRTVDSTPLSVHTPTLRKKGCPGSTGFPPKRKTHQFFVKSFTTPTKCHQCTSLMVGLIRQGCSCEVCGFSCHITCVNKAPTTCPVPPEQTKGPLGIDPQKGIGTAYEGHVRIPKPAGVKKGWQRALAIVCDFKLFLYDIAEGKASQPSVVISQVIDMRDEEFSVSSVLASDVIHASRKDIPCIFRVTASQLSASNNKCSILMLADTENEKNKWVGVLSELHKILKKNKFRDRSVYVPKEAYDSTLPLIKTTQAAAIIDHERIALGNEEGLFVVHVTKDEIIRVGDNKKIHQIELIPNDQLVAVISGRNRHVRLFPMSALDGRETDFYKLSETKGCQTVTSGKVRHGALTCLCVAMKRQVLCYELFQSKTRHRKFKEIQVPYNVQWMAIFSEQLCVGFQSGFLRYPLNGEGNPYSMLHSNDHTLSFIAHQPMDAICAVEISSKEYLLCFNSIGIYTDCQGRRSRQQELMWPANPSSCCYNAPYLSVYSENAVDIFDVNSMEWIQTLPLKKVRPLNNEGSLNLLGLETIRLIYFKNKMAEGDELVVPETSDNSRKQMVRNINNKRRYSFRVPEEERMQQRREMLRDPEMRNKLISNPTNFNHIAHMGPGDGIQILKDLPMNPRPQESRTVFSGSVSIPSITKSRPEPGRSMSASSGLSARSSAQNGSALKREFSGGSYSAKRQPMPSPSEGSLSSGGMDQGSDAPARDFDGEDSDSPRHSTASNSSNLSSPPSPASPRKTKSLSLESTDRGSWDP
Chain of UniProt Q96GD4 (whole entry, looked up): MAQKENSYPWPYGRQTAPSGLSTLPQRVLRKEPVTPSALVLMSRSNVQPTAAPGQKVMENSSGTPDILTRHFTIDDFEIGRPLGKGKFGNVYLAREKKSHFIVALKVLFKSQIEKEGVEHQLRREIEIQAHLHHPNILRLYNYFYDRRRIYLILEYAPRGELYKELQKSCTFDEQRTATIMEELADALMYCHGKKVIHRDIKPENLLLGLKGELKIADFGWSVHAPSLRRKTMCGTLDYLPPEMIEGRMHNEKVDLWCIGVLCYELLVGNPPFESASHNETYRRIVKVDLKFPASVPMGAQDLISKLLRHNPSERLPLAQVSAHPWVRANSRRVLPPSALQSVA
Chain of UniProt P24723 (whole entry, looked up): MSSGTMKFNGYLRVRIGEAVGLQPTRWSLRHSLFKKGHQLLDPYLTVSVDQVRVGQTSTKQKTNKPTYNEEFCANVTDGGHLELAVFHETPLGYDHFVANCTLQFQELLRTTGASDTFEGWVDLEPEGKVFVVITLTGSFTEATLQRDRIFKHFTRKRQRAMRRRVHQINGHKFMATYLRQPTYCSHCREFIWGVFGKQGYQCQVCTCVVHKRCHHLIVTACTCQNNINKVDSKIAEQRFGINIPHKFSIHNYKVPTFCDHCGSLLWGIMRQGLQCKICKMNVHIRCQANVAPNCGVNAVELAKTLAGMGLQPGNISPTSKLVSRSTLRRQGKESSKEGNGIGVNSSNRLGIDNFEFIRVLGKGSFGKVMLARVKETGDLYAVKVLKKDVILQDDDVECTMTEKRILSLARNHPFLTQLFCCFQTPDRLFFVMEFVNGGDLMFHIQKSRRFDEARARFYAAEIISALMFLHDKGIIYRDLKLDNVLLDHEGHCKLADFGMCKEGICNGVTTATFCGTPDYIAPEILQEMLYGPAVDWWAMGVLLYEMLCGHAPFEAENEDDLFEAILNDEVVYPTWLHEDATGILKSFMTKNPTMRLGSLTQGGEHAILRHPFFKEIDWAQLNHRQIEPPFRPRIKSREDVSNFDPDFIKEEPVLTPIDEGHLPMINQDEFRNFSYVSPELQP
Chain of UniProt P06239 (whole entry, looked up): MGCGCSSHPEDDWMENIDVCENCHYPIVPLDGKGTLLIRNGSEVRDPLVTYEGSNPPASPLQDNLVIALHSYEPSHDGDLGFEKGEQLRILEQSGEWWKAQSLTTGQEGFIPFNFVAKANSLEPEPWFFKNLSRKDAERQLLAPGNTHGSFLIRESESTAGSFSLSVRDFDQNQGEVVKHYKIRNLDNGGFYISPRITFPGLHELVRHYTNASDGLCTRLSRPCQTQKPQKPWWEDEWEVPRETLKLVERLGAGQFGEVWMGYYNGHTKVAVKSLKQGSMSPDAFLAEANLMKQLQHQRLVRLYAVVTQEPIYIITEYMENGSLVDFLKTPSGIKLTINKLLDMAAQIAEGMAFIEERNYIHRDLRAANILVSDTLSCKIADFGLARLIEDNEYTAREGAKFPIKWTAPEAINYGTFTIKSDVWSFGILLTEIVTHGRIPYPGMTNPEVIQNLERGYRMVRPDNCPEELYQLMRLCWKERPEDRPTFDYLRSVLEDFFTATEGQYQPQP

Sample 1
SMILES: CNc1ncc2cc(-c3cc(OC)cc(OC)c3Cl)c(=O)n(CCc3ccc(NC(=O)C(C#N)=CC(C)(C)N4CCOCC4)cc3)c2n1
Effect on: kinase activity
Measurement: inhibition
Tyrosine-protein kinase Lck (LCK, Homo sapiens, UniProt P06239); 0.1 µM: 2%
Aurora kinase B (AURKB, Homo sapiens, UniProt Q96GD4); 0.1 µM: -2%
Serine/threonine-protein kinase MRCK alpha (CDC42BPA, Homo sapiens, UniProt Q5VT25); 0.1 µM: -4%
Homeodomain-interacting protein kinase 2 (HIPK2, Homo sapiens, UniProt Q9H2X6); 1 µM: 1%
Serine/threonine-protein kinase D2 (PRKD2, Homo sapiens, UniProt Q9BZL6); 1 µM: 3%
Protein kinase C eta type (PRKCH, Homo sapiens, UniProt P24723); 1 µM: -18%
Serine/threonine-protein kinase PAK 2 (PAK2, Homo sapiens, UniProt Q13177); 1 µM: 0%
NT-3 growth factor receptor (NTRK3, Homo sapiens, UniProt Q16288); 0.1 µM: 3%

Sample 2
Target: Cyclin-dependent kinase 12, with cyclin K (CDK12, Homo sapiens, UniProt Q9NYV4)
Chain of UniProt Q9NYV4 (whole entry, looked up): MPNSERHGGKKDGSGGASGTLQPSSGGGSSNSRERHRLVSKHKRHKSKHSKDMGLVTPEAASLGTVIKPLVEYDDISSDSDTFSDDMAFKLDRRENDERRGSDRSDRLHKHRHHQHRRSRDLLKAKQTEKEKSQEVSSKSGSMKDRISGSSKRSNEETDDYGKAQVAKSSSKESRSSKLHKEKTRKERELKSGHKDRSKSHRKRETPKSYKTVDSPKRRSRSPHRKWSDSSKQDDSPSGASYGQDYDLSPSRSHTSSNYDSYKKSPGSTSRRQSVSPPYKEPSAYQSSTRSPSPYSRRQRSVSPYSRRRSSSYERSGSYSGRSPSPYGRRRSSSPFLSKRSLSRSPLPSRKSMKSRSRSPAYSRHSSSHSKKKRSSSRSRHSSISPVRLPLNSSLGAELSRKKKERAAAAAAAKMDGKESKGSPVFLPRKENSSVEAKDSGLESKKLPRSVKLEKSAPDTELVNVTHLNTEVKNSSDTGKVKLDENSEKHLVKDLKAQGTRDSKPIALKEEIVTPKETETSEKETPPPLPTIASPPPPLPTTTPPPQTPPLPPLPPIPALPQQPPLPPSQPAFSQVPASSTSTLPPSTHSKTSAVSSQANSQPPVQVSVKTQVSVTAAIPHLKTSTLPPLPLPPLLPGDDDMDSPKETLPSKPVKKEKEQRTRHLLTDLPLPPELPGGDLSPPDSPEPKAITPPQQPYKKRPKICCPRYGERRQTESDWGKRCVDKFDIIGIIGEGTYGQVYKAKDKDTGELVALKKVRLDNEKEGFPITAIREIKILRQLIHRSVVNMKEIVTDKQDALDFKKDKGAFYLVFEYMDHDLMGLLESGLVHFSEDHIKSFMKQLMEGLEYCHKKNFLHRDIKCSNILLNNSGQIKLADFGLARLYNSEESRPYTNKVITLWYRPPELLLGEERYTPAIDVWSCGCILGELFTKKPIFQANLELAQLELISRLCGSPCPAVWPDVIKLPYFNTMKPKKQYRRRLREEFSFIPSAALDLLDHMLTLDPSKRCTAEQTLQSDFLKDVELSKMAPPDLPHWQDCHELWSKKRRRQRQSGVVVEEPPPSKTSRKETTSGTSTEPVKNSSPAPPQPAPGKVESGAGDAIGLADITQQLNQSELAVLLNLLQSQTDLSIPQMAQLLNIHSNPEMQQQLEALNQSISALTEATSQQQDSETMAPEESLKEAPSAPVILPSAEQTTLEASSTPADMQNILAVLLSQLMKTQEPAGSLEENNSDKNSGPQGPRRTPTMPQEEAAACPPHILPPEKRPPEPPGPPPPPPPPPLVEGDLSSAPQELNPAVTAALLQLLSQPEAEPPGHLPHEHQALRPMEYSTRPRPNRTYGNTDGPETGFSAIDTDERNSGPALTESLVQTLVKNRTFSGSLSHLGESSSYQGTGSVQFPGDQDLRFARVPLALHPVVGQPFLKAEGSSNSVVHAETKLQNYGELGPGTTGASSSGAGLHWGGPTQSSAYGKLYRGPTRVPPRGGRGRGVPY
Effect on: kinase activity
Mode: inhibitor
Technique: ADP-Glo
Concentration: 0.0027 µM
Measurement: inhibition
CCn1cnc2c(NCc3nc4cc(Cl)c(Cl)cc4[nH]3)nc(N3CCN(S(C)(=O)=O)CC3)nc21: -5.7%
Cn1cc(-n2cnc3c(NCc4nc5cc(Cl)c(Cl)cc5[nH]4)nc(N4CCNCC4)nc32)cn1: -5.1%
CCn1cnc2c(NCc3nc4cc(Cl)c(Cl)cc4[nH]3)nc(N3CCN(C(=O)CNC(C)=O)CC3)nc21: -1.8%
CC(=O)N1CCN(c2nc(NCc3nc4cc(Cl)c(Cl)cc4[nH]3)c3ncn(-c4cnn(C)c4)c3n2)CC1: -6%
CCn1cnc2c(NCc3nc4cc(Cl)c(Cl)cc4[nH]3)nc(N3CCN(Cc4ccncc4)CC3)nc21: -12.8%
CCn1cnc2c(NCc3nc4cc(Cl)c(Cl)cc4[nH]3)nc(N3CCN(C(=O)c4ccccc4)CC3)nc21: -7.2%
CC(=O)N1CCN(c2nc(NCc3nc4cc(Cl)c(Cl)cc4[nH]3)c3ncn(C)c3n2)CC1: -5.6%
CCn1cnc2c(NCc3nc4cc(Cl)c(Cl)cc4[nH]3)nc(N3CCN(C(C)=O)CC3)nc21: 6.3%

Mixed results
FC(F)(F)c1ccc(C2=NOC3(NC(c4ccccc4)=NO3)N2c2ccccc2)cc1 (stereo not drawn)
viability (Huh-7; cell growth or viability, ATP luminescence; 10 µM, 72 h): > 75%

Cn1cc(-c2cccc(CN3CCC4(CC3)COc3c4ccc4c3CN([C@H]3CCC(=O)NC3=O)C4=O)c2)cn1
body weight change (Crbn I391V mouse, MC-38 tumour; 30 mg/kg, day 11, together with: anti-LAG3 antibody 10 mg/kg weekly): -2.1% and 0.7% and -2.4% and 0%

Repeated from above (sample 1):
Protein kinase C eta type (PRKCH, Homo sapiens, UniProt P24723); 1 µM: -18%
NT-3 growth factor receptor (NTRK3, Homo sapiens, UniProt Q16288); 0.1 µM: 3%
Aurora kinase B (AURKB, Homo sapiens, UniProt Q96GD4); 0.1 µM: -2%
